{"data": "Values quoted from earlier work that unrelated publications cite", "note": "Numbered parts are unrelated; values within a part may stem from several laboratories.", "UniProt P0DW61, sequence (whole entry, looked up)": "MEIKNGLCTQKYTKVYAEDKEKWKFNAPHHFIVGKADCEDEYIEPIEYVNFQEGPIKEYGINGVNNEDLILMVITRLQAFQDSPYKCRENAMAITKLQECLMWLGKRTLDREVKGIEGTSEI"}
{"data": "Block 1", "Structure (SMILES)": "OCCN1CCN(CCC=C2c3ccccc3Sc3ccc(C(F)(F)F)cc32)CC1", "cell line": "MCF7", "concentration": "concentration not given", "reference": "DMSO"}
{"assay": "microarray, Connectivity Map, measured: MAFF mRNA", "conditions": "6 h", "fold change": 1.52}
{"assay": "microarray, measured: SQSTM1 mRNA", "fold change": 1.19}
{"assay": "microarray, Connectivity Map, measured: LPIN1 mRNA", "conditions": "6 h", "fold change": 1.9}
{"data": "Block 2", "organism": "Cryptosporidium parvum", "technique": "high-throughput screen", "concentration": "concentration not given"}
{"SMILES": "NC(=O)C[S+]([O-])C(c1ccccc1)c1ccccc1 (stereo not shown)", "activity": "inactive"}
{"SMILES": "Oc1cc(Cl)ccc1Oc1ccc(Cl)cc1Cl", "activity": "inactive"}
{"SMILES": "CC(NC(C)(C)C)C(=O)c1cccc(Cl)c1 (stereo not shown)", "activity": "inactive"}
{"SMILES": "CNC(=O)Oc1ccc2c(c1)[C@]1(C)CCN(C)[C@@H]1N2C.CNC(=O)Oc1ccc2c(c1)[C@]1(C)CCN(C)[C@@H]1N2C.O=S(=O)(O)O", "activity": "inactive"}
{"SMILES": "CC(O)(CS(=O)(=O)c1ccc(F)cc1)C(=O)Nc1ccc(C#N)c(C(F)(F)F)c1 (stereo not shown)", "activity": "inactive"}
{"SMILES": "C[C@]12CC[C@H](O)CC1=CC[C@@H]1[C@@H]2CC[C@]2(C)C(=O)CC[C@@H]12", "activity": "inactive"}
{"SMILES": "Cl.OC1CCCCC1N1CCC(c2ccccc2)CC1 (racemic)", "activity": "inactive"}
{"SMILES": "COc1ccc2[nH]cc(CCN)c2c1", "activity": "inactive"}
{"SMILES": "C[C@]12CC[C@H](O)CC1=CC[C@@H]1[C@@H]2CC[C@@]2(C)[C@H]1CC[C@]2(C)O", "activity": "inactive"}
{"SMILES": "CN1C(=O)COc2c(C(=O)NC3CN4CCC3CC4)cc(Cl)cc21 (stereo not shown)", "activity": "inactive"}
{"SMILES": "CN1CCN(C(=O)O[C@H]2c3nccnc3C(=O)N2c2ccc(Cl)cn2)CC1", "activity": "inactive"}
{"SMILES": "C[N+]1(C)CCN(c2ccccc2)CC1", "activity": "inactive"}
{"SMILES": "C#CCN(C)[C@H](C)Cc1ccccc1", "activity": "inactive"}
{"SMILES": "OC[C@H]1O[C@@H](n2cnc3c(N[C@H]4CCC[C@@H]4O)ncnc32)[C@H](O)[C@@H]1O", "activity": "inactive"}
{"data": "Single results of other studies"}
{"Structure (SMILES)": "COCCN(CCOC)N=O", "target or system": "Salmonella typhimurium", "assay": "plate incorporation, preincubation", "test system": "TA1535", "conditions": "up to 2000 µg/plate, added: uninduced rat liver S9", "endpoint": "Ames mutagenicity", "value": "negative"}
{"Structure (SMILES)": "CNC(=O)N(N(CCCl)S(C)(=O)=O)S(C)(=O)=O", "test system": "CD2F1 female mice, L1210 leukemia", "conditions": "ip, single dose LD50 over ED50", "endpoint": "therapeutic index", "value": "> 8"}
{"Structure (SMILES)": "CC(C)Nc1nc2cc(Cl)c(Cl)cc2n1[C@H]1O[C@@H](CO)[C@H](O)[C@@H]1O", "target or system": "human cytomegalovirus", "assay": "viral replication", "test system": "UL97 F342Y mutant", "endpoint": "EC50", "value": "510 nM"}
{"Structure (SMILES)": "C=C(C)[C@@H](CC=C(C)C)C[C@@]12C[C@@H](CC=C(C)C)C(C)(C)[C@@](CC=C(C)C)(C(=O)C(C(=O)c3ccc(O)c(O)c3)=C1O)C2=O", "target or system": "histone acetyltransferases", "endpoint": "IC50", "value": "~5000 nM"}
{"Structure (SMILES)": "Nc1ccn(C[C@@H](CO)OCP(=O)(O)O)c(=O)n1", "target or system": "human cytomegalovirus", "assay": "viral replication", "test system": "UL54 A987G mutant", "scale": "reference: wild type", "endpoint": "EC50 fold change", "value": "~6.5 fold"}
{"Structure (SMILES)": "COc1ccc(C[C@H](NC(=O)[C@H](C)NC(=O)CN2CCOCC2)C(=O)N[C@@H](Cc2ccccc2)C(=O)C2(C)CO2)cc1 (stereo in doubt)", "test system": "mouse arthritis model", "conditions": "intravenous", "endpoint": "maximum tolerated dose", "value": "30 mg/kg"}
{"Structure (SMILES)": "Nc1ncnc2c1ncn2[C@@H]1O[C@@H]2COP(=O)(O)OP(=O)(O)OC[C@H]3O[C@@H](O[C@@H]1[C@@H]2O)[C@H](O)[C@@H]3O", "target or system": "tad1 (Metaclostridioides mangenotii, UniProt P0DW61)", "assay": "binding", "endpoint": "Kd", "value": "241 nM"}
{"Structure (SMILES)": "Cc1ccnc2c1NC(=O)c1cccnc1N2C1CC1", "target or system": "HIV-1 reverse transcriptase K101Q", "conditions": "cell-based", "scale": "reference: mutant over wild type", "endpoint": "IC50 fold change", "value": "1.2 fold"}
{"Structure (SMILES)": "Oc1c(Br)cc(Br)c2nc3ccccc3nc12", "target or system": "Staphylococcus aureus", "test system": "MRSA 20, biofilm", "endpoint": "MBEC", "value": "100 µM"}
{"Structure (SMILES)": "CC(C)N(N=O)C(C)C", "target or system": "Salmonella typhimurium", "assay": "plate incorporation, preincubation", "test system": "TA1535", "conditions": "up to 2000 µg/plate, added: uninduced rat liver S9", "endpoint": "Ames mutagenicity", "value": "negative"}
{"Structure (SMILES)": "O=C1Nc2ccc(Cl)cc2[C@@](C#CC2CC2)(C(F)(F)F)O1", "target or system": "pol, reverse transcriptase (Feline immunodeficiency virus, UniProt P16088)", "assay": "microscale thermophoresis", "conditions": "concentration not given", "endpoint": "binding", "value": "no binding"}
{"note": "Excerpt of the above (single results of other studies):"}
{"Structure (SMILES)": "Oc1c(Br)cc(Br)c2nc3ccccc3nc12", "target or system": "Staphylococcus aureus", "test system": "MRSA 20, biofilm", "endpoint": "MBEC", "value": "100 µM"}
{"Structure (SMILES)": "C=C(C)[C@@H](CC=C(C)C)C[C@@]12C[C@@H](CC=C(C)C)C(C)(C)[C@@](CC=C(C)C)(C(=O)C(C(=O)c3ccc(O)c(O)c3)=C1O)C2=O", "target or system": "histone acetyltransferases", "endpoint": "IC50", "value": "~5000 nM"}
